Measurements from different studies.
Numbered parts are unrelated; each lists some results of a single study.

Sample 1
Target: Interferon regulatory factor 7, full length, phosphomimetic (IRF7, Homo sapiens, UniProt Q92985, residues 1-503, S101K/S471D/S472D/S475D/S476D/S477D/S483D/S484D/S487D)
Method: protein-binding microarray
Form: double-stranded DNA, one strand shown
Sample: in vitro
Concentration: 250 nM
Notes: 60-bp whole probe
Together with: salmon DNA 0.4 mg/ml
Baseline: random background probes
Direction: higher = stronger binding
All sequences stand within: GCCTAGCAC … GTCTTGATTCGCTTGACGCTGCTG
Residues (chain): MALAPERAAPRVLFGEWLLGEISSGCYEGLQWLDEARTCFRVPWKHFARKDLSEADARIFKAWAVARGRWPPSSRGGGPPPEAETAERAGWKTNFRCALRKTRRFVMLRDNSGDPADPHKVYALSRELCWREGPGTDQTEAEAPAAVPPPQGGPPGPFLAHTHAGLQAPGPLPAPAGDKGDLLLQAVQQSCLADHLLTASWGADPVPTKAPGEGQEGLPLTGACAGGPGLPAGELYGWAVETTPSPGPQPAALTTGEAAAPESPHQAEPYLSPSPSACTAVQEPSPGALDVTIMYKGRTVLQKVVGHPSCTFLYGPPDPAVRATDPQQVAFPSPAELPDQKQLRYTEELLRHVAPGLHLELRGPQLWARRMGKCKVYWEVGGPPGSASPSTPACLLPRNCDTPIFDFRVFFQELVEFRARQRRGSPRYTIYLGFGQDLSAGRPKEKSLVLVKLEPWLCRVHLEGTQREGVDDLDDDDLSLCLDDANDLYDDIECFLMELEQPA
| Oligonucleotide | log fluorescence |
| --- | --- |
| TTAGGTCTCGGTGTCGGTTAGTGCTAG | 0.592 z-score |
| CTCCTTTTAATTTTTAACGAGTGCTAG | 0.988 z-score |
| TTAGAAGTGGGGTTTCGATTAGTGCTA | 5.98 z-score |
| GACGATATCGGTTTTCGAGACGTGCTA | 1.02 z-score |
| TTAGATAACAGTCTCGATTAGTGCTAG | 1.53 z-score |
| TTAGGTTTCCTTCACCTTTAGTGCTAG | 0.583 z-score |
| GACGGTATCTGGTATCGGGACGTGCTA | -0.107 z-score |

Sample 2
Target: Histone acetyltransferase KAT6A, winged helix 2, GST fusion (KAT6A, Homo sapiens, UniProt Q92794, residues 85-181)
Method: protein binding microarray
Form: double-stranded DNA, one strand shown
Sample: in vitro
Concentration: not given
Notes: 8-mer, flanks averaged, mean of 2 arrays, mostly near background
Baseline: not given
Direction: higher = stronger binding
Target sequence (chain): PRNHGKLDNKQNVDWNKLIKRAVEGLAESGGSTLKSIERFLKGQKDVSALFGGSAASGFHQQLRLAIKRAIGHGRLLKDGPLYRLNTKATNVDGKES
| Oligonucleotide | E-score |
| --- | --- |
| GCGCGACC | 0.2 |
| AGAGCATA | -0.0798 |
| AACCTCTA | -0.0811 |
| ACCTCAAC | -0.148 |
| ACTCCATG | -0.223 |
| CGACTCAC | 0.00985 |
| CATGATCA | -0.0166 |

Sample 3
Target: RNA binding protein fox-1 homolog 2, RRM domain, GST-SBP tag (RBFOX2, Homo sapiens, UniProt O43251-10, residues 100-194)
Method: RNA Bind-n-Seq
Form: RNA
Sample: in vitro
Concentration: 365 nM
Notes: natural RNA segment, single round, ends assumed
Baseline: no-protein control
Direction: higher = stronger binding
All sequences stand within: GGGAGUUCUACAGUCCGACGAUC … UGGAAUUCUCGGGUGCCAA
Construct (chain): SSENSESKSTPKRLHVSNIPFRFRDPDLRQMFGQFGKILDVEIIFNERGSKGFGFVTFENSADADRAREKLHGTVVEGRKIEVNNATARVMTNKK
| Oligonucleotide | RBNS enrichment (R) |
| --- | --- |
| CCGUUCUGUCCCCCAUUCAAGGAAUGACAUUCUCAGUCACCCAGAGCCAUCUGGCCUACCCUCUCAGGAAAUGGGUUGUCCUGUAGAGUUCUCUACCCUUUUAAAGGCAA | 0.487 |
| AUGCAGAAUACAGACCUUGAGGUUGGCUACUGUUCAAGACAGCUUCAGUCUCUCUACCACAUUCCAUGUAAACCUAUGGUGAAGUAACACCAGAAAAAAGAGCCUGAGAG | 0.476 |
| GCUAAAGUCUCCUCAGUGUGCAGCCAGAUUCCUGGGGACUGCUGAGUGUGGUUACAGGCUGCAUUUCAGACAAUGACCAGGUUUACUUUUCAGAUCACAAAGCAAACAGU | 0.316 |
| ACAAAUGUGUCAUUCAAAACAGUAAUUAGGGAAAUCCCACAGAUGAAAAAUGCCUUAGUGAUAAGCUUUCAUGGCAGAGCACGUCAAGAUAAAUGGGUAUACUGGAAUCC | 0.405 |
| UUUGCCCCACCUUGUCUUGUUGAUGAACAAUAUUAUGAAGCCUGCAGUCAUUCUCUCUGUACAUCAGAGCUUAGUUCGAAUGGAAUCAUGAAAAUCUCUGAUUCUGACCU | 11.6 |

Other studies, line by line
| Substance | target | assay | test system | setting | scale | quantity | result |
| --- | --- | --- | --- | --- | --- | --- | --- |
| PhoQ, residues 284 288 289 292 302 303 DDMDFR | PhoP, residues 12 14 15 18 19 LHSVW (Escherichia coli, UniProt P23836) | Sort-seq, item: YFP reporter | E. coli | PhoQ-PhoP variant library, together with: 10 µM Mg2+ | baseline: high Mg2+ state, higher = stronger signaling | fold induction | 0.759 |
